Experimental data gathered from unrelated publications.
Parts stem from different laboratories: compare values within a part only.
UniProt P10721, sequence (whole entry, unmodified, looked up): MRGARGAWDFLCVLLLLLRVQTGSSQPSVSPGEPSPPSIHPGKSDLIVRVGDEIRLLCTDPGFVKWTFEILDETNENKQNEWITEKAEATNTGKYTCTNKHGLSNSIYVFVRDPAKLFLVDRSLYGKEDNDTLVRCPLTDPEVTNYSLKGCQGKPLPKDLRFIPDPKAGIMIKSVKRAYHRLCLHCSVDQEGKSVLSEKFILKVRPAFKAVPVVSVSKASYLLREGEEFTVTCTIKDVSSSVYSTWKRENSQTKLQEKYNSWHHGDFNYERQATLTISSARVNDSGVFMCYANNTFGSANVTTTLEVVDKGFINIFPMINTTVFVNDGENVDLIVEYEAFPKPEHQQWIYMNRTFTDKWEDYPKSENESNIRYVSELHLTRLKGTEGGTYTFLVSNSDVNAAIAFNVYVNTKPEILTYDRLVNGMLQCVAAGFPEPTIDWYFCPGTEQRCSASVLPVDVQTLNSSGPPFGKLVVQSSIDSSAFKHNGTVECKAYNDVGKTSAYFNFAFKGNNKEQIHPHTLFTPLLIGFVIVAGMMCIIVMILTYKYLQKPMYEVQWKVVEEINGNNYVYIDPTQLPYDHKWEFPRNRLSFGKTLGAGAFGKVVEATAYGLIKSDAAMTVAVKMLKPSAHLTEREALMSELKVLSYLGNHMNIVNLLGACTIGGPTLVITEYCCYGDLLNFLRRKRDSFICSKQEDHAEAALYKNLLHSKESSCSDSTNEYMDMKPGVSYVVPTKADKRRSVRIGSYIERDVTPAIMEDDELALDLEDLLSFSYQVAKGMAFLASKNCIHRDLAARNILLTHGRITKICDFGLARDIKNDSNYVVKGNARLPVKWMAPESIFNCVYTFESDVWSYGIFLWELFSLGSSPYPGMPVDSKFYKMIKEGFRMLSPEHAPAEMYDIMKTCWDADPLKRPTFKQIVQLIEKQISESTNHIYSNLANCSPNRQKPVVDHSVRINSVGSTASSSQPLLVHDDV
UniProt P36507, sequence (whole entry, looked up): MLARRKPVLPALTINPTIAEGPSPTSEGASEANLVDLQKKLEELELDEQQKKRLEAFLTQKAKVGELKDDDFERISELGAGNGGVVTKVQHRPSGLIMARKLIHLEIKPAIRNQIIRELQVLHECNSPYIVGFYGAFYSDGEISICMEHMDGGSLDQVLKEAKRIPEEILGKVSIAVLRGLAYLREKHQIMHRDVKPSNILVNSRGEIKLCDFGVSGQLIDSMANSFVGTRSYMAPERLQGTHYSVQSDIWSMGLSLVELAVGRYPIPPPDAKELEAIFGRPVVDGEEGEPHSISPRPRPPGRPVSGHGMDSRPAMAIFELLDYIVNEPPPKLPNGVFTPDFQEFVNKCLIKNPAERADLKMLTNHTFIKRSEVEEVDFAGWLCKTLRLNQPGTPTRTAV
UniProt Q13470, sequence (whole entry, looked up): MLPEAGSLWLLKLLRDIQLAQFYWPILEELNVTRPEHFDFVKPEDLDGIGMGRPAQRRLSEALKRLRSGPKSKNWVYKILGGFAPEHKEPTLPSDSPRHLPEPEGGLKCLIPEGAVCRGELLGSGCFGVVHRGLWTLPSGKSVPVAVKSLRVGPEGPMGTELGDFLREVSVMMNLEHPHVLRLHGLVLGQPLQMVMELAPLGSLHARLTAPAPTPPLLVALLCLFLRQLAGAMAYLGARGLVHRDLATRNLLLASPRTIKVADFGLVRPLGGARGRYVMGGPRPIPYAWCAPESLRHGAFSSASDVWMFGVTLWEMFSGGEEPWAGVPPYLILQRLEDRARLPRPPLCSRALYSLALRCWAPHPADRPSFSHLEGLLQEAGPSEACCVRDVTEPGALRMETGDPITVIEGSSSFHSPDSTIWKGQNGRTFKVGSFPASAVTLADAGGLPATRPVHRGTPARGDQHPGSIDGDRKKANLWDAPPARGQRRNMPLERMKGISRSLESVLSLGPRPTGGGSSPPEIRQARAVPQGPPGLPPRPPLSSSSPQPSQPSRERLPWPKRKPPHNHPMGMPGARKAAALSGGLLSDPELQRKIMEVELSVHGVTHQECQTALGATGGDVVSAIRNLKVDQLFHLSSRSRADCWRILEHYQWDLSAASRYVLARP
UniProt Q00532, sequence (whole entry, looked up): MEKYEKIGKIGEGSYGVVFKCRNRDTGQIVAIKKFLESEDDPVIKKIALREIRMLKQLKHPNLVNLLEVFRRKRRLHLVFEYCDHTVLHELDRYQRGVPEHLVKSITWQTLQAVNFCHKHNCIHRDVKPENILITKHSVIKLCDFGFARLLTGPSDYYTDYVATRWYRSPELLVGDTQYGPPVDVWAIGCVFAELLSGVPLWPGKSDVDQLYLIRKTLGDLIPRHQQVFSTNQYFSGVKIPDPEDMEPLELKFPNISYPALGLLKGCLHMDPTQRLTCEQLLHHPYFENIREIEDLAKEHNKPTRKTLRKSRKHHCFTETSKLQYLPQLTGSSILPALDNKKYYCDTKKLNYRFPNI
UniProt P06239, sequence (whole entry, looked up): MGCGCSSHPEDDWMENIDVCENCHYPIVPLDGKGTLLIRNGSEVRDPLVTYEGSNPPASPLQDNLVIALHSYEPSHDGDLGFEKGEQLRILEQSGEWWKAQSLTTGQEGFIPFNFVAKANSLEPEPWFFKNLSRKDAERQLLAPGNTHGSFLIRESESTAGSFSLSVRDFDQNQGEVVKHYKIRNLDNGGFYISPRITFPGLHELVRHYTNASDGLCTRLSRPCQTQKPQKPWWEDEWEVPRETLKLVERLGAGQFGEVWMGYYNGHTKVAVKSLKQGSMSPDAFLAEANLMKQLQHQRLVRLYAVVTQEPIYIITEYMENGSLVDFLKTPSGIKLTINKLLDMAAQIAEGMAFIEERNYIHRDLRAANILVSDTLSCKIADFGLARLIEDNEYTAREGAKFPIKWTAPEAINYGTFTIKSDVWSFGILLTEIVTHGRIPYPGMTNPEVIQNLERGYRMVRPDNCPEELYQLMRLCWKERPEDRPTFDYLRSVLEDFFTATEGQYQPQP
UniProt Q9Y4K4, sequence (whole entry, looked up): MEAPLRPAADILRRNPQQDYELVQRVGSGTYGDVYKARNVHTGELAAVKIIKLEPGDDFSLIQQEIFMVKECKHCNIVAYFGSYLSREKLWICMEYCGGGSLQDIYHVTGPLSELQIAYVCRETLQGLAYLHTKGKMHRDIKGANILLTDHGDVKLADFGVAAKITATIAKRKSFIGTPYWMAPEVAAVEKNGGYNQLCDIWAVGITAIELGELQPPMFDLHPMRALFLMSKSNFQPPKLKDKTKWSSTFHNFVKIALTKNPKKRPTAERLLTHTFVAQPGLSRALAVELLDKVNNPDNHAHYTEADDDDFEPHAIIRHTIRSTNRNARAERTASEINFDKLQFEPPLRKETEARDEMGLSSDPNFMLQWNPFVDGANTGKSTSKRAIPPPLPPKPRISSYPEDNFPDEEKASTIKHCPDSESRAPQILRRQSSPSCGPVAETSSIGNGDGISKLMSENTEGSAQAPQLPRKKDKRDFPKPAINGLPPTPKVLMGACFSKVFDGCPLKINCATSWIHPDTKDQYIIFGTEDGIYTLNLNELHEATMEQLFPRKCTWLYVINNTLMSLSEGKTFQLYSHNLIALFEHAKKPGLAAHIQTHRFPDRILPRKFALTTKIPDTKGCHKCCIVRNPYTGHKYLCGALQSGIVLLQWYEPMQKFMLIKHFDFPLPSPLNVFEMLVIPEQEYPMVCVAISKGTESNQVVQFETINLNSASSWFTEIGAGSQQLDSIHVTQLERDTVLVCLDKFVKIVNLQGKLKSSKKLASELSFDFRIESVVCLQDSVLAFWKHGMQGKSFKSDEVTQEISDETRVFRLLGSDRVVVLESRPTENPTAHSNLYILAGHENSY
UniProt P0C264, sequence (whole entry, looked up): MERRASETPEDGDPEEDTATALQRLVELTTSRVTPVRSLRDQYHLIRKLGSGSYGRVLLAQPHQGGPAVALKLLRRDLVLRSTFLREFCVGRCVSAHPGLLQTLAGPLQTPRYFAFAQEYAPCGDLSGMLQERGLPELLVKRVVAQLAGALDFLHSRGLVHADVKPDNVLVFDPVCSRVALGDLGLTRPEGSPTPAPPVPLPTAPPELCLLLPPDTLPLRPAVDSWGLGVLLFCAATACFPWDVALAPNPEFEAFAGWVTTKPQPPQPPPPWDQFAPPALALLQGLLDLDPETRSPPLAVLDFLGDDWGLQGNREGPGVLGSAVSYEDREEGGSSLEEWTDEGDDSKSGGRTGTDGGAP
UniProt Q9NRH2, sequence (whole entry, looked up): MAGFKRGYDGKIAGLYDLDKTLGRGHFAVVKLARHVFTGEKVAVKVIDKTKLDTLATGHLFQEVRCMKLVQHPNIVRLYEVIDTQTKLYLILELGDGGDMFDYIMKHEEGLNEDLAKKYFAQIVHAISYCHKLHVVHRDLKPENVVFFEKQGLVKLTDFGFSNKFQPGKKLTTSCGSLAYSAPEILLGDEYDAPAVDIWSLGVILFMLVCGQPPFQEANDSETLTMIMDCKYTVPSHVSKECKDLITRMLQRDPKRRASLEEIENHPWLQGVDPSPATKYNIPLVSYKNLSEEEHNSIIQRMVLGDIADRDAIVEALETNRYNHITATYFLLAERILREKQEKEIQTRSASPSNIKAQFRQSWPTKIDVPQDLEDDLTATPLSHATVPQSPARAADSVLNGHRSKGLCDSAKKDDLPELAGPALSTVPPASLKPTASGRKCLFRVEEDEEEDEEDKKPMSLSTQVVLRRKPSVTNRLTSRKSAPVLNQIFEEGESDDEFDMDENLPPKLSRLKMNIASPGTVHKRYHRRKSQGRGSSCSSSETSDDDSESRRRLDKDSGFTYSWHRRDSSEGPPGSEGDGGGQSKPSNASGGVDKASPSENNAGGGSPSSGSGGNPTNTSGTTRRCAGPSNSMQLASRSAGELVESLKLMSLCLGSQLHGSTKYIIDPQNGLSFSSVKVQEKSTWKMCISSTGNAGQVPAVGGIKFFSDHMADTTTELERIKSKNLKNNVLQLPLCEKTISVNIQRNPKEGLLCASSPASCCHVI

Block 1
SMILES: CN(C)c1ncnc(-c2ccc3nc(Nc4cc(CN5CCN(C(=O)CC(F)(F)F)CC5)ccn4)[nH]c3c2)c1Cl
Observed: cell-free assay
Technique: competition with immobilised ligand
Tested at: 1 µM
Endpoint: remaining binding
Casein kinase I isoform alpha (CSNK1A1, Homo sapiens, UniProt P48729): 89%
Tyrosine-protein kinase ABL1, non-phosphorylated (ABL1, Homo sapiens, UniProt P00519, H396P): 4.2%
Activated CDC42 kinase 1 (TNK2, Homo sapiens, UniProt Q07912): 96%
Dual specificity protein kinase CLK1 (CLK1, Homo sapiens, UniProt P49759): 71%
Mast/stem cell growth factor receptor Kit (KIT, Homo sapiens, UniProt P10721, A829P): 53%
Non-receptor tyrosine-protein kinase TNK1 (TNK1, Homo sapiens, UniProt Q13470): 96%
Cyclin-dependent kinase-like 1 (CDKL1, Homo sapiens, UniProt Q00532): 96%
Dual specificity mitogen-activated protein kinase kinase 2 (MAP2K2, Homo sapiens, UniProt P36507): 74%
RAF proto-oncogene serine/threonine-protein kinase (RAF1, Homo sapiens, UniProt P04049): 100%
Uncharacterized serine/threonine-protein kinase SBK3 (SBK3, Homo sapiens, UniProt P0C264): 100%
Mast/stem cell growth factor receptor Kit (KIT, Homo sapiens, UniProt P10721, T670I/V559D): 100%
Cyclin-dependent kinase-like 5 (CDKL5, Homo sapiens, UniProt O76039): 66%
SNF-related serine/threonine-protein kinase (SNRK, Homo sapiens, UniProt Q9NRH2): 100%
Serine/threonine-protein kinase PLK2 (PLK2, Homo sapiens, UniProt Q9NYY3): 100%
SRSF protein kinase 2 (SRPK2, Homo sapiens, UniProt P78362): 76%
Mast/stem cell growth factor receptor Kit (KIT, Homo sapiens, UniProt P10721, V559D/V654A): 100%
Tyrosine-protein kinase ABL1, phosphorylated (ABL1, Homo sapiens, UniProt P00519, M351T): 43%
Mitogen-activated protein kinase kinase kinase kinase 5 (MAP4K5, Homo sapiens, UniProt Q9Y4K4): 100%
Epidermal growth factor receptor (EGFR, Homo sapiens, UniProt P00533, L861Q): 96%
1-phosphatidylinositol 3-phosphate 5-kinase (PIKFYVE, Homo sapiens, UniProt Q9Y2I7): 81%
Tyrosine-protein kinase ABL1, phosphorylated (ABL1, Homo sapiens, UniProt P00519, Q252H): 29%
Ribosomal protein S6 kinase alpha-4, C-terminal kinase domain (RPS6KA4, Homo sapiens, UniProt O75676): 73%
Phosphatidylinositol 4-phosphate 3-kinase C2 domain-containing subunit beta (PIK3C2B, Homo sapiens, UniProt O00750): 100%
Mast/stem cell growth factor receptor Kit (KIT, Homo sapiens, UniProt P10721): 100%

Block 2
Host: mouse
Medium: microsomes or S9
Tested at: 2 µM
Time: 0.5 h
Endpoint: remaining compound
Cc1cc(C)nc(N2CCN(c3ccccn3)CC2)n1: 0.0101%
CCCN1C(=O)c2c(C(=O)NCc3ccc(N(C)C)cc3)ncn2CC1(C)C(=O)NCc1ccc(F)cc1 (centres unmarked): 14.9%
COc1ccc(N2C(=O)CCc3c(-c4ccccc4)cc(N(C)C)cc32)cc1: 7.95%
CC[S+]([O-])C1CCCCC1NC(=O)NC1CC(C)(C)OC1(C)C (centres unmarked): 75.4%
CN(C)CCN1C(=O)C2CC=C(Cl)CC2C1=O (centres unmarked): 86.1%
c1ccc(-c2nc(-c3csc(-c4ccccc4)n3)cs2)cc1: 68.5%
CC(C)(C)OC(=O)N1CCC(c2n[nH]c3nc(S(C)(=O)=O)ncc23)CC1: 23.6%
COc1ccc(C(=O)N2C[C@@H](NC(=O)N(C)C)[C@H](C(C)C)C2)c(OC)n1: 66.4%
CN(C(=O)CN(c1ccc(Cl)c(Cl)c1)S(C)(=O)=O)C(CN1CCCC1)c1ccc(-c2ccnc(Cl)c2)cc1 (centres unmarked): 9.01%

Block 3
Organism: Sarcocystis neurona
Observed: parasite growth
Tested at: 10 µM
Time: 96 h
Notes: secondary screen
Endpoint: inhibition
CC(C[N+](C)(C)C)OC(N)=O (centres unmarked): -15.8%
O=C(C1CCCCC1)N1CC(=O)N2CCc3ccccc3C2C1 (centres unmarked): -28.1%
CCS(=O)(=O)CCn1c([N+](=O)[O-])cnc1C: -20.9%
CCOC(=O)[C@H](CCc1ccccc1)N[C@@H](C)C(=O)N1CCC[C@H]1C(=O)O: -7.7%

Block 4
Compound: O=C(Nc1ccc(Cl)cc1)c1ccccc1NCc1ccncc1
Observed: enzyme activity
Mode: inhibitor
Tested at: 0.5 µM
Reference: control
Endpoint: remaining activity
Casein kinase I isoform gamma-3 (CSNK1G3, Homo sapiens, UniProt Q9Y6M4): 105%
Ephrin type-A receptor 3 (EPHA3, Homo sapiens, UniProt P29320): 92.1%
Ribosomal protein S6 kinase alpha-2 (RPS6KA2, Homo sapiens, UniProt Q15349): 94.1%
Serine/threonine-protein kinase TAO2 (TAOK2, Homo sapiens, UniProt Q9UL54): 102%
Fibroblast growth factor receptor 1 (FGFR1, Homo sapiens, UniProt P11362): 83.7%
Dual specificity mitogen-activated protein kinase kinase 2 (MAP2K2, Homo sapiens, UniProt P36507): 102%
Tyrosine-protein kinase JAK3 (JAK3, Homo sapiens, UniProt P52333): 87.8%
Fibroblast growth factor receptor 3 (FGFR3, Homo sapiens, UniProt P22607): 92.2%
Wee1-like protein kinase (WEE1, Homo sapiens, UniProt P30291): 90.1%
Macrophage-stimulating protein receptor (MST1R, Homo sapiens, UniProt Q04912): 90.5%
Tyrosine-protein kinase Lck (LCK, Homo sapiens, UniProt P06239): 93.3%
Activin receptor type-1B (ACVR1B, Homo sapiens, UniProt P36896): 95.8%
MAP kinase-activated protein kinase 2 (MAPKAPK2, Homo sapiens, UniProt P49137): 97.6%

Some of these lines once more (block 4):
Tyrosine-protein kinase JAK3 (JAK3, Homo sapiens, UniProt P52333): 87.8%
Fibroblast growth factor receptor 3 (FGFR3, Homo sapiens, UniProt P22607): 92.2%
Wee1-like protein kinase (WEE1, Homo sapiens, UniProt P30291): 90.1%
Macrophage-stimulating protein receptor (MST1R, Homo sapiens, UniProt Q04912): 90.5%
Tyrosine-protein kinase Lck (LCK, Homo sapiens, UniProt P06239): 93.3%
Activin receptor type-1B (ACVR1B, Homo sapiens, UniProt P36896): 95.8%
